Published values pooled from the literature.
Lines come from different studies, so protocols differ. Numbers after ± are the reported error.
Cell line: HepG2

`Cc1ccc2nc(C)c(C(=O)NCc3ccc(C(F)(F)F)cc3)n2c1` gave an IC50 of greater than 25 µM (cell growth or viability).
For `O=C(NC12CC3CC(CC(C3)C1)C2)c1cc2cc(Cl)ccc2[nH]1`, the IC50 was greater than 50 µM (cell growth or viability, ATP luminescence; 48 h).
For `CCOc1cccc2c1[O][Pt-2]1([Cl])[N+](=C2)Cc2cccc[n+]21` (stereo not shown), the IC50 was 6.99 ± 1.74 µM (cell viability, MTT; 48 h).
For `CC[C@@]1(O)C(=O)OCc2c1cc1n(c2=O)Cc2cc3cc(OC(=O)CCCC(=O)NCC(=O)N[C@@H](Cc4ccccc4)C(=O)N[C@@H](Cc4ccccc4)C(=O)N[C@@H](Cc4ccc(O)cc4)C(=O)NCCS)ccc3nc2-1`, the IC50 was 0.423 µM (cell growth or viability, MTT).
`CC1(C)OC2C(COP(=O)(O)O)OC(n3cnc4c(=O)[nH]c(NC(=O)c5ccccc5)nc43)C2O1` (stereo not shown) has an IC50 of greater than 100 µM (cell growth or viability).
`O=C(NCc1ccco1)C1CCN(S(=O)(=O)c2ccc(Cl)cc2)CC1` gave an IC50 of 0.84 µM (cell growth or viability, MTT).
`Cc1ccc2nc(C(F)(F)F)c(C(=O)NCc3cccc(Cl)c3)n2c1` has an IC50 of greater than 50 µM (cell growth or viability, ATP luminescence; 48 h).
With `CNC(=O)c1cc(Oc2ccc(NC(=O)c3cc(-c4ccc(COC(=O)CCC(=O)OC5OC6OC7(C)CCC8C(C)CCC(C5C)C68OO7)cc4)ccn3)cc2)ccn1` (stereo not shown) the IC50 was 19.2 µM (cell growth or viability, MTT; 72 h).
With `NC(=O)c1cccc2c3c([nH]c12)CCC(N)C3` (stereo not shown) the IC50 was 0.198 µM (cell growth or viability).
`COc1ccc2nc(C)cc(OCC(=O)Nc3ccccc3OC)c2c1` has an IC50 of greater than 50 µM (cell growth or viability, ATP luminescence; 48 h).
With `CNC(=O)c1cc(Oc2ccc(NC(=O)c3ccc(-c4ccccc4OC(=O)CCC(=O)OC4OC5OC6(C)CCC7C(C)CCC(C4C)C57OO6)cn3)cc2)ccn1` (stereo not shown) the IC50 was 16.3 µM (cell growth or viability, MTT; 72 h).
`Cc1cccc(-c2nc(Nc3ccncn3)c3c(C)csc3n2)n1` has an IC50 of greater than 25 µM (cell growth or viability, ATP luminescence; 48 h).
With `CO[C@H]1[C@@H](O)[C@H](n2ccc(=O)[nH]c2=O)O[C@@H]1[C@@H](O[C@H]1OC(C(=O)N[C@H]2N=C(c3ccccc3)c3ccccc3NC2=O)=C[C@H](O)[C@@H]1O)C(N)=O` the IC50 was greater than 400 µg/mL (cell growth or viability, MTT).

A few entries again:
With `CNC(=O)c1cc(Oc2ccc(NC(=O)c3cc(-c4ccc(COC(=O)CCC(=O)OC5OC6OC7(C)CCC8C(C)CCC(C5C)C68OO7)cc4)ccn3)cc2)ccn1` (stereo not shown) the IC50 was 19.2 µM (cell growth or viability, MTT; 72 h).
